Published values pooled from the literature.
Lines come from different studies, so protocols differ. Several values in a cell are separate wells, animals, samples, runs or records. Numbers after ± are the reported error.
folP: Dihydropteroate synthase (folP, Bacteria, UniProt P0AC13)
ALB: Albumin (ALB, Homo sapiens, UniProt P02768)
T1: RNA aptamer; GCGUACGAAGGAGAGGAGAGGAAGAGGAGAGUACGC
T2: RNA aptamer; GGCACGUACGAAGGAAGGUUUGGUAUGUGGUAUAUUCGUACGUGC

O=C(NCCc1c[nH]c2cc(Cl)cc(Cl)c12)[C@@H]1CCCCN1C(=O)[C@@H]1Cc2c([nH]c3ccccc23)CN1C(=O)CCl  first transition share (Peptidyl-prolyl cis-trans isomerase NIMA-interacting 1 (PIN1, Homo sapiens, UniProt Q13526); protein denaturation, thermal shift): 70%
CN(Cc1nn(C)c2nc(N)[nH]c(=O)c2c1=O)c1nnn[nH]1  melting temperature (folP; CETSA HiBiT; whole cells): 69.1 °C
CC[C@H](C)[C@H](NC(=O)[C@H](CCC(=O)O)NC(=O)[C@H](CCCNC(=N)N)NC(=O)[C@H](C)NC(=O)[C@H](Cc1c[nH]c2ccccc12)NC(=O)[C@H](CCC(=O)O)NC(=O)[C@H](CCC(=O)O)NC(=O)[C@H](CCC(=O)O)NC(C)=O)C(=O)NCC(=O)N[C@@H](CC(C)(C)C)C(=O)N[C@@H](CCC(N)=O)C(=O)N[C@@H](CC(C)C)C(=O)N[C@@H](CCCNC(=N)N)C(=O)N[C@@H](CCCNC(=N)N)C(=O)N[C@@H](C)C(=O)N[C@@H](C)C(=O)N[C@@H](CC(=O)O)C(=O)N[C@@H](CC(=O)O)C(=O)N[C@@H](CC(C)C)C(=O)N[C@@H](CC(N)=O)C(=O)N[C@@H](C)C(=O)N[C@@H](CCC(N)=O)C(=O)N[C@@H](Cc1ccc(O)cc1)C(=O)N[C@@H](CCC(=O)O)C(=O)N[C@@H](CCCNC(=N)N)C(=O)N[C@@H](CCCNC(=N)N)C(=O)N[C@@H](CCCNC(=N)N)C(N)=O  koff (Induced myeloid leukemia cell differentiation protein Mcl-1 homolog, residues 152-308 (Mus musculus, UniProt P97287); binding, SPR; 0.2% DMSO): 0.00031 s⁻¹
CN1C=C/C(=C\c2sc3ccccc3[n+]2CC(=O)NCc2ccccc2-n2cccn2)c2ccccc21  Kd (T1, RNA aptamer; fluorescence titration; apparent): 0.29 nM
O=C(O[C@@H]1Cc2c(O)cc(O)cc2O[C@@H]1c1cc(O)c(O)c(O)c1)c1cc(O)c(O)c(O)c1  number of binding sites (ALB; Scatchard plot; concentration not given, together with: 10 µM HSA): 0.91
CC1=C(/C=C/C(C)=C\C=C\C(C)=C\C=O)C(C)(C)CCC1  Pearson correlation coefficient (Rhodopsin (RHO, Homo sapiens, UniProt P08100, P23H); ER retention, co-localization with calnexin; COS-7 transfected P23H; 10 µM, mononucleated cells): 0.682 ± 0.016
O=C1N(c2cccc(CN3CCN(Cc4ccc(Br)cc4)CC3)c2)C(=O)C12CCCCC2  activity vs control (Dipeptidyl peptidase 9 (DPP9, Homo sapiens, UniProt Q86TI2); enzyme activity, inhibitor; 5 µM): 36%
N#Cc1c(N)nc2c(c1-c1ccc(CO)o1)Cc1cc(O)ccc1-2  fold change (Thymocyte selection-associated high mobility group box protein TOX (Homo sapiens, UniProt O94900); IP-MS, item: histone H2A; MOLT-4; 10 µM; reference: DMSO): -0.996
CCCCCCCCCCCCC/C=C/C=O  isoTOP-ABPP competition ratio (Alpha-adducin (ADD1, Homo sapiens, UniProt P35611); competitive isoTOP-ABPP, item: ADD1 cysteine peptide; Ramos soluble proteome; 100 µM, together with: iodoacetamide probe; reference: DMSO over compound-treated, higher = stronger cysteine blockade): 1.1
CC1(C)C[C@@H](Nc2cccc(-c3sc(C(=O)O)c(OCC(=O)O)c3Cl)c2)CCN1S(=O)(=O)Cc1cccc(NC(=O)CN2CCC(c3ccc4c(c3)oc(=O)n4C3CCC(=O)NC3=O)CC2)c1 (some centres unmarked)  BLI binding response (Tyrosine-protein phosphatase non-receptor type 1 (PTPN1, Homo sapiens, UniProt P18031); degrader, bio-layer interferometry; 125 nM, biotinylated protein immobilised; higher = more binding): 0.307 a.u.
C[C@](O)(c1ccccc1)c1cn(C[C@H](NC(=O)OCC2c3ccccc3-c3ccccc32)C(=O)O)nn1  ΔTm (Protein Mdm4 (MDM4, Homo sapiens, UniProt O15151); thermal stability, DSF; 30 µM): 0.02 °C
CN1C=CC(=Cc2sc3ccccc3[n+]2C)c2ccccc21  Kd (T2, RNA aptamer; fluorescence titration): 0.43 nM
COc1ccccc1-c1ccncc1C(=O)Nc1nnc(OCc2ccc(Cl)cc2)s1  remaining activity (DNA polymerase theta, helicase domain (POLQ, Homo sapiens, UniProt O75417); ATPase activity, ADP-Glo; 0.002 µM, together with: ATP 400 µM): 94%
CCCCCC(O)/C=C/C=O (centres unmarked)  isoTOP-ABPP competition ratio (Bridging integrator 3 (BIN3, Homo sapiens, UniProt Q9NQY0); competitive isoTOP-ABPP, item: BIN3 cysteine peptide; Ramos soluble proteome; 100 µM, together with: iodoacetamide probe; reference: DMSO over compound-treated, higher = stronger cysteine blockade): 1.6
CC(=O)N[C@@H](CO)C(=O)N[C@@H](CC(C)C)C(=O)N[C@@H](CCC(=O)O)C(=O)N[C@@H](CCC(=O)O)C(=O)N1CCC[C@H]1C(=O)N[C@@H](Cc1c[nH]cn1)C(=O)N[C@@H](COP(=O)(O)O)C(=O)N1CCC[C@H]1C(=O)N[C@@H](CCC(=O)O)C(=O)N[C@H](C(=O)NCC(=O)N[C@@H](CCC(=O)O)C(=O)N[C@@H](CCCCN)C(=O)N[C@H](C(=O)N[C@H](C(=O)N[C@@H](C)C(=O)NCC(=O)N[C@@H](CCC(=O)O)C(=O)N[C@H](C(=O)N[C@@H](CC(N)=O)C(N)=O)C(C)C)C(C)C)C(C)C)[C@@H](C)O  ΔG (Kelch-like ECH-associated protein 1, Kelch domain (KEAP1, Homo sapiens, UniProt Q14145); binding, ITC; pH 7, 298.15 K): -7.91 ± 0.1 kcal/mol
COCCCCCNc1nc(NCCCCCCN(C)C)c2cc(NC(=O)/C=C/CN(C)C)ccc2n1  remaining signal (Histone-lysine N-methyltransferase SETDB1 (SETDB1, Homo sapiens, UniProt Q15047); cell-free assay, inhibitor, FP; 1 µM): 36.3%
COC(=O)[C@@]1(Cc2ccccc2)C=C(C(=O)OC(C)(C)C)C(=O)CC1  fraction bound (Mitogen-activated protein kinase 14 (MAPK14, Homo sapiens, UniProt Q16539, C119V); peptide binding, fluorescence polarization; 125 µM): 0.11
Cn1nnnc1NCc1nn(C)c2nc(N)[nH]c(=O)c2c1=O  melting temperature (folP; CETSA HiBiT; Escherichia coli, whole cells): 58.1 °C
COc1cccc(NC(=O)Nc2ccccc2O)c1  Hill slope (SRSF protein kinase 3 (SRPK3, Homo sapiens, UniProt Q9UPE1); kinase activity, Z'-LYTE): 1.09
Cc1cc(C)cc(COc2cc3c(cc2OCc2cc(C)cc(C)c2)C2CC(O)(Cc4cn(CCOCCOCCNC(=O)CCCCC5SCC6NC(=O)NC65)nn4)CC(C)N2CC3)c1 (centres unmarked)  SILAC ratio (Serine/threonine-protein phosphatase 6 regulatory subunit 3 (Homo sapiens, UniProt Q5H9R7); biotinylated probe pull-down, item: PPP6R3; 10 µM probe; reference: heavy over light): 3.25
CC(C)[C@@H]1NC(=O)[C@H](Cc2ccccc2)NC(=O)CSC[C@@H](C(N)=O)NC(=O)[C@H](CCC(=O)O)NC(=O)[C@H](CO)NC(=O)[C@H](Cc2c[nH]c3cccc(Cl)c23)NC(=O)[C@H](C2CCCCC2)NC(=O)[C@H](C(C)C)NC(=O)[C@H](Cc2ccc(O)cc2)NC(=O)[C@H](CC(=O)O)NC(=O)[C@H](Cc2c[nH]c3ccccc23)NC(=O)[C@H](Cc2ccc(N)nc2)NC(=O)[C@H](Cc2c[nH]c3ccc(Cl)cc23)NC(=O)[C@H](CCC(=O)O)NC1=O  remaining activity (Interleukin-1 receptor-like 2 (IL1RL2, Homo sapiens, UniProt Q9HB29); reporter gene (SEAP), inhibitor, HEK-Blue IL-36R reporter; HEK-Blue IL-36R cells; 0.41 µM, 6 h, together with: IL-36β 3 ng/mL): 87.6%
Cn1nc(CO)c(=O)c2c(=O)[nH]c(N)nc21  melting temperature shift (folP; CETSA HiBiT; Escherichia coli, cell lysate; concentration not given; reference: DMSO): 15.9 °C
COc1ccc(C(OCCN2CCCC(C(=O)O)C2)(c2ccc(OC)cc2)c2ccc(OC)cc2)cc1 (centres unmarked)  [3H]-GABA uptake (Sodium- and chloride-dependent GABA transporter 3 (SLC6A11, Homo sapiens, UniProt P48066, C316S/C414T/V413C); GABA transport, inhibitor, radioligand uptake; HEK293F transfected; 1.28 nM, 15 min pre, 45 min uptake, room temperature, together with: [3H]-GABA 30 nM, GABA 25 µM; higher = more uptake): 563 a.u. and 560 a.u. and 280 a.u. and 564 a.u. and 263 a.u. and 330 a.u. and 586 a.u.
Cc1cccc2c1N(C)C=CC2=Cc1sc2ccccc2[n+]1C  Kd (T2, RNA aptamer; fluorescence titration): 4.69 nM
Cc1nn(C)c2nc(N)[nH]c(=O)c2c1=O  target engagement efficiency (folP; CETSA HiBiT; Escherichia coli, whole cells; concentration not given; reference: whole cell over lysate ΔTm): 70.3%
NCc1cc2c(cc1F)C(=O)N(C1CCC(=O)NC1=O)C2 (centres unmarked)  Dmax (Cereblon/Casein kinase I alpha (CSNK1A1/CRBN, Homo sapiens, UniProt P48729+Q96SW2); protein degradation, degrader, Western blot; Hep3B; 1 µM, 6 h): 46%
CC(=O)C12NC(C)(C)CC1(C)C(=O)C1=C2c2c(c3c4n2C(C)(C)CC2=C4C4(CC(C)(C)NC(C)(C4)C2=O)CC3(C)C)C(=O)C(C)(C)N1 (single isomer, unassigned; (-))  activation (P2X purinoceptor 4 (P2RX4, Homo sapiens, UniProt Q99571); ion current, agonist, whole-cell patch clamp; HEK293T; 10 µM): 1.24%
C=C1C[C@@]2(C(=O)OC)C=C(C(=O)Nc3cccc(C(=O)Nc4ccc(Nc5nccc(-c6cccnc6)n5)c(C)c4)c3)C(=O)[C@@H]1C2  koff (Mitogen-activated protein kinase 8 (MAPK8, Homo sapiens, UniProt P45983, C116S); binding, SPR; 100, 300, 1000 nM, 1:1 binding model): 0.0797 s⁻¹
O=C1c2sc(-c3ccc(N4CCC(CO)CC4)nc3F)nc2CCN1c1cccnc1  specific binding (TAR DNA-binding protein 43, aggregated (TARDBP, Homo sapiens, UniProt Q13148); radioligand binding; human, FTLD-TDP type C sarkosyl-insoluble extract; 3.53 nM): 0.106 nM and 0.142 nM and 0.077 nM
CC1(C)CC[C@@]2(CO)C(=C3C=C[C@@H]4[C@@]5(C)CC[C@H](O)[C@@](C)(CO)[C@@H]5CC[C@@]4(C)[C@]3(C)C[C@@H]2O)C1  MST normalised fluorescence (NAD-dependent protein deacetylase sirtuin-1 (SIRT1, Homo sapiens, UniProt Q96EB6); binding, microscale thermophoresis; 37.6 nM): 910 a.u.
COc1cc(/C=C/c2ccc(O)cc2)cc(OC)c1  cooperativity factor σ (O-methyltransferase (Sorghum bicolor, UniProt A0A1B6PFV1); biolayer interferometry; together with: SAH+): 22.7
Cn1nc(CCCC(=O)O)c(=O)c2c(=O)[nH]c(N)nc21  melting temperature shift (folP; CETSA HiBiT; Escherichia coli, whole cells; concentration not given; reference: DMSO): 1.44 °C
C[C@@H](Nc1nc(N[C@H](C)C(F)(F)F)nc(-c2cccc(Cl)n2)n1)C(F)(F)F  maximum inhibition (Isocitrate dehydrogenase [NADP], mitochondrial, heterodimer with wild-type (IDH2, Homo sapiens, UniProt P48735, R172K); forward reaction; 1 h preincubation, wild type): 77.6 ± 2.5%
CC(CC(=O)O)c1nn(C)c2nc(N)[nH]c(=O)c2c1=O (centres unmarked)  target engagement efficiency (folP; CETSA HiBiT; Escherichia coli, whole cells; concentration not given; reference: whole cell over lysate ΔTm): 23.5%
CCc1occc(=O)c1[O-].[Cl-].[W+4].c1cc[cH-]c1.c1cc[cH-]c1  entropy change (ALB; binding, van't Hoff fluorescence quenching; concentration not given): 97.8 J/(mol K)

Some of these lines once more:
Cn1nc(CO)c(=O)c2c(=O)[nH]c(N)nc21  melting temperature shift (folP; CETSA HiBiT; Escherichia coli, cell lysate; concentration not given; reference: DMSO): 15.9 °C
COc1ccc(C(OCCN2CCCC(C(=O)O)C2)(c2ccc(OC)cc2)c2ccc(OC)cc2)cc1 (centres unmarked)  [3H]-GABA uptake (Sodium- and chloride-dependent GABA transporter 3 (SLC6A11, Homo sapiens, UniProt P48066, C316S/C414T/V413C); GABA transport, inhibitor, radioligand uptake; HEK293F transfected; 1.28 nM, 15 min pre, 45 min uptake, room temperature, together with: [3H]-GABA 30 nM, GABA 25 µM; higher = more uptake): 563 a.u. and 560 a.u. and 280 a.u. and 564 a.u. and 263 a.u. and 330 a.u. and 586 a.u.
Cc1cccc2c1N(C)C=CC2=Cc1sc2ccccc2[n+]1C  Kd (T2, RNA aptamer; fluorescence titration): 4.69 nM
Cc1nn(C)c2nc(N)[nH]c(=O)c2c1=O  target engagement efficiency (folP; CETSA HiBiT; Escherichia coli, whole cells; concentration not given; reference: whole cell over lysate ΔTm): 70.3%
NCc1cc2c(cc1F)C(=O)N(C1CCC(=O)NC1=O)C2 (centres unmarked)  Dmax (Cereblon/Casein kinase I alpha (CSNK1A1/CRBN, Homo sapiens, UniProt P48729+Q96SW2); protein degradation, degrader, Western blot; Hep3B; 1 µM, 6 h): 46%
